Measurements gathered from unrelated publications.
Every numbered part comes from another study and shows a few of its results, in no order. “And” joins repeats or separate records; there may be more than shown.
UniProt Q00532, sequence (whole entry, looked up): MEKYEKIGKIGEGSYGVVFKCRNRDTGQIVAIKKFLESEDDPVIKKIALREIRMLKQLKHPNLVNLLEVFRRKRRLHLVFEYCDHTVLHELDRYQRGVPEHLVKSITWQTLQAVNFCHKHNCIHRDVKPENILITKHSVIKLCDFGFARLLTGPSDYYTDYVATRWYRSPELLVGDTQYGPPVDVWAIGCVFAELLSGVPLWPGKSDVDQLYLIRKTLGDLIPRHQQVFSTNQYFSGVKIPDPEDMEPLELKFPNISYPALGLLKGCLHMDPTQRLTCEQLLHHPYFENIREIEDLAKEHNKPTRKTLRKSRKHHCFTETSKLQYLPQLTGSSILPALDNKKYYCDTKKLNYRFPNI
UniProt Q6ZWH5, sequence (whole entry, looked up): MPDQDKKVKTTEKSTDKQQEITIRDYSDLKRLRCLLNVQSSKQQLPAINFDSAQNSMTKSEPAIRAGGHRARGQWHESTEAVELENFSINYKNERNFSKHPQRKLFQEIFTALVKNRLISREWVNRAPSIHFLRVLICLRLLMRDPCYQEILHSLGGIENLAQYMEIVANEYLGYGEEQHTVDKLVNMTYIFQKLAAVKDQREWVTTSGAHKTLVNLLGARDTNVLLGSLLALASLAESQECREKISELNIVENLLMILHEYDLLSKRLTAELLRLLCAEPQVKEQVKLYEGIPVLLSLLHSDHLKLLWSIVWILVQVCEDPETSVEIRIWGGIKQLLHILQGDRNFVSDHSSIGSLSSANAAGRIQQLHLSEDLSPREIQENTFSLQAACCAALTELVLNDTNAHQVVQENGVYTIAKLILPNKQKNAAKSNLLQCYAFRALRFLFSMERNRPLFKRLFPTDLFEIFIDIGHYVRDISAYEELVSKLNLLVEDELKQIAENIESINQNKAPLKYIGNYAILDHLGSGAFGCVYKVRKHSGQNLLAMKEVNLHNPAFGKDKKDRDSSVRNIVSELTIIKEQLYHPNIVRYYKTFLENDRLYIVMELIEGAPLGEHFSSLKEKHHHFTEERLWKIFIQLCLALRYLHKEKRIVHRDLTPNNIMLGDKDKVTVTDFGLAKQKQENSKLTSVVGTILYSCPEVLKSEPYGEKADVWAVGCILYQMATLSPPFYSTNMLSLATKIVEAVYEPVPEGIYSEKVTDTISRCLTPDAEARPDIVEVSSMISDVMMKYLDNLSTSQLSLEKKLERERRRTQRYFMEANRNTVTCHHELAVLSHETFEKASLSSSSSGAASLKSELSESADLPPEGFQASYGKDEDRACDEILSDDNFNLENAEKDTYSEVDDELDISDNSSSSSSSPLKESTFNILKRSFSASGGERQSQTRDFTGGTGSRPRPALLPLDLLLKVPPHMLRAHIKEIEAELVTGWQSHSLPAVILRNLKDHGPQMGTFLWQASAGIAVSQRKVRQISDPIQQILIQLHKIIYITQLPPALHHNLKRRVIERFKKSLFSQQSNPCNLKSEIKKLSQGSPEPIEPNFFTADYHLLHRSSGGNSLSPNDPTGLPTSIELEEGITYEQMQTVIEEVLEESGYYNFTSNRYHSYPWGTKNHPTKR
UniProt Q5VT25, sequence (whole entry, looked up): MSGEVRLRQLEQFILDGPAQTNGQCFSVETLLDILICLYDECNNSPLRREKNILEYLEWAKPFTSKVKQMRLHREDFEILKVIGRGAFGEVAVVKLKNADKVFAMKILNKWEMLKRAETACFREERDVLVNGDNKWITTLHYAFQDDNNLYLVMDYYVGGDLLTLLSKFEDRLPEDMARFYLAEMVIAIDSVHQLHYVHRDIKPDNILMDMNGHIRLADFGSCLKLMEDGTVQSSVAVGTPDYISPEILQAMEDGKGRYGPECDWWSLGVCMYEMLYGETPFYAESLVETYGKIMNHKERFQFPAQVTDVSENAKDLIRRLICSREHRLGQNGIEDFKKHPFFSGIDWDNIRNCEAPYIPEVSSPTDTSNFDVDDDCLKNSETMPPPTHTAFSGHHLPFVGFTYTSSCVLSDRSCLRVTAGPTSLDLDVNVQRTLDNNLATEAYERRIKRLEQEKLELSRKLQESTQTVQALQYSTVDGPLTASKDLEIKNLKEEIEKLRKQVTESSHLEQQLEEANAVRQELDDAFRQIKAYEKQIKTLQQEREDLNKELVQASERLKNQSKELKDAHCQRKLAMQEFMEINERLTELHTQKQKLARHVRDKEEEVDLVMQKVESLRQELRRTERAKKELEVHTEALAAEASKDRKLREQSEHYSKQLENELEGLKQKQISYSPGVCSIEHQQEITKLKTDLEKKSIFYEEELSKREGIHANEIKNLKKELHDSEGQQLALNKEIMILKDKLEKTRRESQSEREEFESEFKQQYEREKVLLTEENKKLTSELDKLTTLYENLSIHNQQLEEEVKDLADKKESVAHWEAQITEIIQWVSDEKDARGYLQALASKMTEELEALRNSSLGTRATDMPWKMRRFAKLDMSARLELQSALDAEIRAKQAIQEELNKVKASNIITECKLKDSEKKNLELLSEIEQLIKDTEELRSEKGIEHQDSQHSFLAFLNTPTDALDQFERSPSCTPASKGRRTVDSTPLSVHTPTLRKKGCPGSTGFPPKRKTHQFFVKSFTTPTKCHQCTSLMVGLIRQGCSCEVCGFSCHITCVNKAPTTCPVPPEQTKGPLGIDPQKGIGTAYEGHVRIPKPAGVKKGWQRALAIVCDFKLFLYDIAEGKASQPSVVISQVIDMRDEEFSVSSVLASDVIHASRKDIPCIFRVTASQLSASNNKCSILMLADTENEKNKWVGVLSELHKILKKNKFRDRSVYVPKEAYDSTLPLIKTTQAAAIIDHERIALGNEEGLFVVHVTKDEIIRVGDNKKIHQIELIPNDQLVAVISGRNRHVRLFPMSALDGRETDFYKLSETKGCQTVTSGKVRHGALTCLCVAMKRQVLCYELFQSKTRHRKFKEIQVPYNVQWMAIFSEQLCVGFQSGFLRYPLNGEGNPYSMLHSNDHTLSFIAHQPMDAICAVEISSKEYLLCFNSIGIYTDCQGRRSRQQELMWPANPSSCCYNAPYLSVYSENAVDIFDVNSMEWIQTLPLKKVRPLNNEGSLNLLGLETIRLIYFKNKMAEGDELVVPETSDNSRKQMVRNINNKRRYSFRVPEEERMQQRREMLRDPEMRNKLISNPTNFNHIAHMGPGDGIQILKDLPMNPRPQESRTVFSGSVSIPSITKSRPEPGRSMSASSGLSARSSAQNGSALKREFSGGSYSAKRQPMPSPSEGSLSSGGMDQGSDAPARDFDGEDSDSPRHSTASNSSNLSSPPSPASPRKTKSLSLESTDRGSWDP
UniProt Q86YV6, sequence (whole entry, looked up): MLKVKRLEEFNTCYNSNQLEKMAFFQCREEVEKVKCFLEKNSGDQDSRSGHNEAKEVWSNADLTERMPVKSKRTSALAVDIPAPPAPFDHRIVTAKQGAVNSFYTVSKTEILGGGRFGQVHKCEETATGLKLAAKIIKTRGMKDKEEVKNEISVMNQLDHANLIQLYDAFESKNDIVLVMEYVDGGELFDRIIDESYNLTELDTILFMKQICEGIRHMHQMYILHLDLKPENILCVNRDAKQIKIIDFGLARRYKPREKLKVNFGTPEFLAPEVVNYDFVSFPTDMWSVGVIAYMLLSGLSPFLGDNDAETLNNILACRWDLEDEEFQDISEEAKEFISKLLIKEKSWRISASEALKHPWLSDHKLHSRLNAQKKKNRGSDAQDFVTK
UniProt O75582, sequence (whole entry, looked up): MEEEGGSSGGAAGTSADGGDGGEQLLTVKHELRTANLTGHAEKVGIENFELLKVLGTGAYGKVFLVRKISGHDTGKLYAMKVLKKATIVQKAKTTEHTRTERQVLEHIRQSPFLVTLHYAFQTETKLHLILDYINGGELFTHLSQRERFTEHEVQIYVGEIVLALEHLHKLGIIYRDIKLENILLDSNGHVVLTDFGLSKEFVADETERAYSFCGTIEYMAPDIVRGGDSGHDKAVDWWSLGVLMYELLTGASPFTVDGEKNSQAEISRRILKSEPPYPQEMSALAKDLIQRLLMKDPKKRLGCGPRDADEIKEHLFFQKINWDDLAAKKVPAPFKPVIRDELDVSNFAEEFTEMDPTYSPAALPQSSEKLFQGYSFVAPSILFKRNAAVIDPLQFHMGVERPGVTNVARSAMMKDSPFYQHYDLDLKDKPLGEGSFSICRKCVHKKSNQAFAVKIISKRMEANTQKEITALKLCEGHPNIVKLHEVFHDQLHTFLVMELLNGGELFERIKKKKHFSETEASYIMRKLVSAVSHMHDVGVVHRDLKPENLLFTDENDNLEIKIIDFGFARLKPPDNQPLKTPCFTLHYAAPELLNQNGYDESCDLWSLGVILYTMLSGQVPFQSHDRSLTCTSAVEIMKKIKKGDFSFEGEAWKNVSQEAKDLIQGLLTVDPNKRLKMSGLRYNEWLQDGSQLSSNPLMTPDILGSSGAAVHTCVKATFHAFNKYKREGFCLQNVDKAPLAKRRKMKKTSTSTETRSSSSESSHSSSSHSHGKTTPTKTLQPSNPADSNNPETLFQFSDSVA

Set 1
Cell line: sample E normal colon organoid
Method: CellTiter-Glo
Concentration: 1 µM
Time: 4 days
Baseline: DMSO
Measurement: viability
C[C@H](c1ccnc(Nc2nc3ccc(-c4cc(N(C)C)ncn4)cc3[nH]2)c1)N1CCN(C(=O)CC(F)(F)F)CC1: 67.3%
C[C@H](c1ccc(F)cc1)N(Cc1ccc(Cl)c(C(=O)O)c1)C(=O)c1cnc2ccccc2c1: 102%
CCCCN(Cc1ccccc1)C(=O)c1ccc(S(=O)(=O)Nc2ccccc2)cc1: 128%
O=C(Nc1cccnn1)N1CCC(=Cc2cccc(Oc3ccc(C(F)(F)F)cn3)c2)CC1: 86.5%
C[C@H](c1ccc(F)cc1)N(Cc1cccc(C(=O)O)c1)C(=O)c1cnc2ccccc2c1: 106%
NS(=O)(=O)c1cc(NC(=O)C2(c3ccccc3Cl)CC2)ccc1Oc1cccc(Cl)c1: 112%
CN(c1ccnc(CNc2nc(Nc3ccc4c(c3)CC(=O)N4)ncc2C(F)(F)F)n1)S(C)(=O)=O: 126%

Set 2
Target: Tyrosine-protein kinase HCK (HCK, Homo sapiens, UniProt P08631)
UniProt P08631, sequence (whole entry, looked up): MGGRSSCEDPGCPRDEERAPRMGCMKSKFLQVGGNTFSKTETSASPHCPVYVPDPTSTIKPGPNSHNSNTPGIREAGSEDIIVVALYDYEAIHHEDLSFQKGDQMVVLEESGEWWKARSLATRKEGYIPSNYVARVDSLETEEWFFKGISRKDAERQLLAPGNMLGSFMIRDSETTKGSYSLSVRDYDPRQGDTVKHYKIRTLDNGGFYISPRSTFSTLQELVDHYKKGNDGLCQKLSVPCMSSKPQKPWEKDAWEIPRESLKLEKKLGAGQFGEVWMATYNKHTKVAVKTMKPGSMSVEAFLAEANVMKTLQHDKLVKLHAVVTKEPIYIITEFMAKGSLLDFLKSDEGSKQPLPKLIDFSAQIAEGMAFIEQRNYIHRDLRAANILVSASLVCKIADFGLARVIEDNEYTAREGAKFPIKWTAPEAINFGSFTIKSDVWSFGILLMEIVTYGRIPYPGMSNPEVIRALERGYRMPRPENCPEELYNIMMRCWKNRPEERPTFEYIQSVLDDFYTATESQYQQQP
Read-out: enzyme activity
Action: inhibitor
Concentration: 0.5 µM
Baseline: control
Measurement: remaining activity
Oc1ccc(-c2nc(-c3ccncc3)c(-c3ccc(F)cc3)[nH]2)cc1: 97.6%
O=c1c2ccccc2[nH]c(=S)n1CCN1CCC(=C(c2ccc(F)cc2)c2ccc(F)cc2)CC1: 114%
Cc1cccc(-c2[nH]c(C(C)(C)C)nc2-c2ccc3c(c2)OCO3)n1: 90.7%
Cc1ccc(Nc2nccc(N(C)c3ccc4c(C)n(C)nc4c3)n2)cc1S(N)(=O)=O: 64.8%
O=C1NC(=O)C(c2cn(CCCO)c3ncccc23)=C1c1cnccn1: 63.4%
NCCNc1ncc(C(N)=O)c(Nc2cccc(C(F)(F)F)c2)n1: 89.7%
Cn1c2ccccc2c2c3c(c4c5ccccc5n(CCC#N)c4c21)CNC3=O: 96.8%
COc1cc2nccc(Oc3ccc(NC(=S)NC(=O)c4ccccc4C)cc3)c2cc1OC: 4.93%
COc1ccc(CNC(=O)Nc2ncc([N+](=O)[O-])s2)cc1: 96.7%
N#CC(C#N)=C(N)/C(C#N)=C/c1ccc(O)cc1: 98.6%
O=C1NC(=O)C(c2cn(CCCn3ccnc3)c3ccccc23)=C1Nc1ccccc1: 97.9%
C#Cc1cccc(Nc2ncnc3cc(OCCOC)c(OCCOC)cc23)c1: 74.6%
O=S(=O)(c1cccc2cnccc12)N1CCCNCC1: 95.9%
COc1cc2ncnc(Nc3ccc(Oc4ccccc4)cc3)c2cc1OC: 13.5%
Nc1[nH]nc2nc3ccccc3nc12: 98.6%

Set 3
Compound: CN1CCN(C(=O)c2ccc(NC(=O)Nc3ccc(N(C)c4ccnc(Nc5ccc(CS(C)(=O)=O)cc5)n4)cc3)cc2)CC1
Read-out: binding
Concentration: 1 µM
Measurement: remaining binding
Ribosomal protein S6 kinase alpha-5, N-terminal kinase domain (RPS6KA5, Homo sapiens, UniProt O75582); competition with immobilised ligand: 100%
CDKL1 (Homo sapiens, UniProt Q00532): 73%
BRSK1 (Homo sapiens, UniProt Q8TDC3): 100%
CDC42BPA (Homo sapiens, UniProt Q5VT25); competition with immobilised ligand: 89%
MYLK4 (Homo sapiens, UniProt Q86YV6): 98%
NEK10 (Homo sapiens, UniProt Q6ZWH5): 94%

Set 4
Structure (SMILES): O=C1CCC(N2Cc3cc(C4CCN(Cc5ccccc5)CC4)ccc3C2=O)C(=O)N1 (stereo not shown)
Medium: plasma
Measurement: plasma concentration
male ICR mice; intravenous, 1 mg/kg, 24 h: not detected
ICR mouse, male; intravenous, 1 mg/kg, 4 h: 20.7 ng/mL and 25.2 ng/mL
male ICR mice; intravenous, 1 mg/kg, 8 h: 6.93 ng/mL
ICR mouse, male; oral, 3 mg/kg, 0.25 h: 222 ng/mL and 266 ng/mL
Sprague Dawley rat, male; intravenous, 1 mg/kg, 1 h: 62.1 ng/mL
Sprague Dawley rat, male; intravenous, 1 mg/kg, 0.083 h: 123 ng/mL and 121 ng/mL
Sprague Dawley rat, male; oral, 3 mg/kg, 0.083 h: 3.36 ng/mL and 6.26 ng/mL and 1.95 ng/mL
male ICR mice; intravenous, 1 mg/kg, 1 h: 77.5 ng/mL and 97.8 ng/mL
male ICR mice; intravenous, 1 mg/kg, 0.083 h: 184 ng/mL

Excerpt of the above (set 2):
NCCNc1ncc(C(N)=O)c(Nc2cccc(C(F)(F)F)c2)n1: 89.7%
Cn1c2ccccc2c2c3c(c4c5ccccc5n(CCC#N)c4c21)CNC3=O: 96.8%
